{"data": "Published values pooled from the literature", "note": "Lines come from different studies, so protocols differ. Numbers after ± are the reported error."}
{"Compound": "CCCCC1=NC2(CCCC2)C(=O)N1Cc1ccc(-c2ccccc2S(=O)(=O)Nc2noc(C)c2C)c(COCC)c1", "setting": "basic", "pKa": 4.09}
{"Compound": "NC(=O)c1ccc(NCCCN2CCOCC2)c([N+](=O)[O-])c1", "pKa": 6.91}
{"Compound": "NCCOCC(=O)N1CCC[C@H](C(=O)NCc2nc(-c3ccc(C(F)(F)F)cc3)cs2)C1", "assay": "potentiometric titration", "pKa": 9.8}
{"Compound": "CCn1c(SCC(=O)Nc2cccc(OC)c2)nnc1-c1ccncc1", "pKa": 3.1}
{"Compound": "CCn1cc(C)c2c([C@H](N)c3ccc(C(F)(F)F)nc3)n(C)nc2c1=O", "assay": "potentiometric titration", "pKa": 4.14}
{"Compound": "O=C(O)CNC(=O)c1ncc(-c2cccc(F)c2)cc1O", "setting": "second acidic centre", "pKa": 7.7}
{"Compound": "CCOc1ccc(C(C)=O)cc1Cc1c(O)nc(N)nc1O", "pKa": 7.23}
{"Compound": "O=C(NCCN1CCCC1)c1cc(-c2ccc(CN3CCOCC3)cc2)nc2ccc(F)cc12", "assay": "potentiometric titration", "test system": "water with 10% DMSO", "setting": "second pKa", "pKa": "6.82 ± 0.04"}
{"Compound": "Cc1ccccc1CN1C(=O)C2=C(CCN(Cc3ccccc3)C2)N2CCN=C12", "assay": "potentiometric titration", "test system": "water", "setting": "first of two pKa", "pKa": 6.76}
{"Compound": "N#Cc1ccc([C@H]2CCc3cncn32)c(F)c1", "pKa": 6.9}
{"Compound": "N[C@@H](CC(=O)O)C(=O)OC(C(=O)O)c1cc2c(cc1[N+](=O)[O-])OCO2 (mixture of isomers)", "assay": "pH-rate profile of hydrolysis, item: benzylic carboxylic acid", "test system": "aqueous buffer, 12.5% DMSO-d6", "pKa": "5.8 to 7"}
{"Compound": "CCCC[P+](/C=C(/c1ccccc1)c1cc(Cl)ccc1O)(CCCC)CCCC", "assay": "capillary electrophoresis", "setting": "20 °C", "pKa": 8.56}
{"Compound": "COCCc1ccc(OCC(O)CNC(C)C)cc1 (stereo not shown)", "assay": "n-hexane/buffer partitioning", "test system": "aqueous", "setting": "pH 7", "pKa": "9.71 ± 0.05"}
{"Compound": "COc1cc(OC)c(NC(=O)CSc2nnc(-c3ccncc3)n2C)cc1Cl", "pKa": 3.49}
{"Compound": "CCCCCCCCCCCCCCN(C)C", "assay": "extrapolated from shorter analogues", "pKa": 10}
{"Compound": "O=c1[nH]ncn1-c1ccc(N2CCN(c3ccc(OCC4COC(Cn5cncn5)(c5ccc(Cl)cc5Cl)O4)cc3)CC2)cc1 (stereo not shown)", "pKa": 2.91}
{"Compound": "CN1CCC(COc2cnc(-c3cccc(Cn4nc(-c5cccc(C#N)c5)ccc4=O)c3)nc2)CC1", "setting": "pKa 2", "pKa": 2.8}
{"Compound": "COc1cc(C)c2cc(C3(NS(=O)(=O)c4ccccc4-c4ccccc4)COC3)oc2c1", "setting": "acidic", "pKa": 10.4}
{"Compound": "C=CC(=O)Nc1cc(Nc2nccc(-c3cn(C)c4ccccc34)n2)c(OC)cc1N(C)CCN(C)C", "pKa": 4.4}
{"Compound": "Cn1c(COc2cccc3cccnc23)nnc1SCC(N)=O", "pKa": 4.26}
{"Compound": "O=C(O)c1c(O)c(-c2ccccc2)nc2ccccc12", "setting": "second acidic centre", "pKa": 9.5}
{"Compound": "O=C(Nc1ccc(S(=O)(=O)Nc2ncccn2)cc1)c1c(Cl)cccc1Cl", "pKa": 5.66}
{"Compound": "CC(C)(C)N1Cc2cccc(n2)CN(C(C)(C)C)Cc2cccc(n2)C1", "test system": "0.1 M NaCl", "setting": "25 °C, HL+ deprotonation", "pKa": 11.2}
{"Compound": "CC1CCN(S(=O)(=O)c2ccc(Cl)c(C(=O)Nc3ccc(C(=O)O)cc3)c2)CC1", "pKa": 3.77}
{"Compound": "Cc1nc(C(=O)NCC(=O)O)c(O)c2ccc(Oc3ccccc3)cc12", "setting": "second acidic centre", "pKa": 8.6}
{"Compound": "O=C1c2c(O)cc(O)cc2O[C@H](c2cc(O)c(O)c(O)c2)[C@H]1O", "assay": "potentiometric titration", "test system": "25, 50 and 75% methanol v/v", "setting": "added: sodium hydroxide titrant", "pKa": 7.9}
{"Compound": "CCCCCCCCCCCCCCCCN(C)C", "assay": "extrapolated from shorter analogues", "pKa": 10}
{"Compound": "C=CC(F)(F)Oc1cccc(C(=O)O)c1", "assay": "UV-metric", "setting": "25 °C, aqueous extrapolated", "pKa": 3.7}
{"Compound": "CCCCCCCCN(C)C", "setting": "extrapolated from shorter analogues", "pKa": 10}
{"Compound": "CCOc1ccc2nc(S(N)(=O)=O)sc2c1", "setting": "sulfonamide group", "pKa": 7.82}
{"Compound": "CCCC(=O)Nc1cc(C2CC2)[nH]n1", "pKa": 2.89}
{"Compound": "Nc1nc2c(nc([N+](=O)[O-])n2[C@@H]2O[C@H](CO)[C@@H](O)[C@H]2O)c(=O)[nH]1", "assay": "UV absorption, item: N1 deprotonation", "test system": "water", "setting": "25 °C", "pKa": 8.45}
{"Compound": "CCCCCCCCCCCCCCN", "setting": "extrapolated from shorter analogues", "pKa": 10.6}
{"Compound": "CC(C)(C)c1ccc(CN2CCN(C(c3ccccc3)c3ccc(Cl)cc3)CC2)cc1 (stereo not shown)", "assay": "acid-base titration", "test system": "water", "setting": "20 °C", "pKa": 3.73}
{"Compound": "C=C(F)C(=O)N1CCN(c2nc(OC[C@@H]3CCCN3C)nc3c2CCN(c2cccc4cccc(Cl)c24)C3)C[C@@H]1CC#N", "assay": "potentiometric", "setting": "first basic pKa", "pKa": 3.33}
{"Compound": "O=C(O)CNC(=O)c1nc(Cl)c2ccccc2c1O", "setting": "second acidic centre", "pKa": 6.8}
{"Compound": "Cc1ccc2cccc(O)c2n1", "assay": "capillary electrophoresis", "pKa": 9.6}
{"note": "For quick reference, copied from above:"}
{"Compound": "CCCCCCCCN(C)C", "setting": "extrapolated from shorter analogues", "pKa": 10}
{"Compound": "CC1CCN(S(=O)(=O)c2ccc(Cl)c(C(=O)Nc3ccc(C(=O)O)cc3)c2)CC1", "pKa": 3.77}
{"Compound": "CCn1cc(C)c2c([C@H](N)c3ccc(C(F)(F)F)nc3)n(C)nc2c1=O", "assay": "potentiometric titration", "pKa": 4.14}
{"Compound": "NC(=O)c1ccc(NCCCN2CCOCC2)c([N+](=O)[O-])c1", "pKa": 6.91}
{"Compound": "CCCC(=O)Nc1cc(C2CC2)[nH]n1", "pKa": 2.89}
